Assay results pooled from the literature.
Every numbered part comes from another study and shows a few of its results, in no order. Positions count from the first letter of the parent shown.

Series 1
Target: CCND3, cyclin fold, Cln2 fusion (human)
Technique: yeast growth competition, sequencing
Sample: yeast
Notes: weak parent motif
Relative to: not given
Direction: higher = stronger binding
Parent: viral docking peptide; KGVKRKLFAEDSS
Substitution | normalised enrichment score
KGVKRKLFPEDSS [A9P] | -0.00672
KGVKRKLFATDSS [E10T] | -0.0467
KGVKDKLFAEDSS [R5D] | 0.0884

Series 2
Target: RNA binding protein fox-1 homolog 2, RRM domain, GST-SBP tag (RBFOX2, Homo sapiens, UniProt O43251-10, residues 100-194)
Technique: RNA Bind-n-Seq
Molecule type: RNA
Sample: in vitro
Tested at: 365 nM
Notes: natural RNA segment, single round, ends assumed
Relative to: no-protein control
Direction: higher = stronger binding
Construct (chain): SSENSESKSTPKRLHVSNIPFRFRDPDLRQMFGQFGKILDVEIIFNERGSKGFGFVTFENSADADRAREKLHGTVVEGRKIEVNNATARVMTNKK
Sequence | RBNS enrichment (R)
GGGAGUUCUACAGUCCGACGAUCGAUUGAACUCUGAAUUAACACAGUAUUCAUUCAUCUGUGUUAUUUUGUAAAAAUAACUGUAGCUUAUAUUCUUUAUUUGUGCAUACCAAUGUGAAAAUCCACUCUUUUAUUGGAAUUCUCGGGUGCCAA | 1.12
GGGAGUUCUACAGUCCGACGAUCCCACUGCAAUCACUGUGCAUAUGUCUUUUCUUAGCAAAAGGAUUUUAAAACUUGAGCCCUGGACCUUUUGUCCUAUGUGUGUGGAUUCCAGGGCAACUCUAGCAUCAGAGUGGAAUUCUCGGGUGCCAA | 6.1
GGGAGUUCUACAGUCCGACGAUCGUCUAUAAACAGGUGACACUGGCUGCAGCAAAAAGCCAUUCGAUCCACACAAAUUGAUCUUCUAUCAUCUUGGAAUCUGAAUUGCAGGGAGGAGCAGCAUGUAAGACGACUGGAAUUCUCGGGUGCCAA | 11.4
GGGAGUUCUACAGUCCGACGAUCCACAGACUGCCUUAGCCCCCACACCUCUGUCCCUAGGAGAAUGAAUGGGCAGAGUGGAGCUGACACUCUCUCCUCAGGCAGCCUCCUCAGCCUUUAUUCGUCAACGGCCUUGGAAUUCUCGGGUGCCAA | 0.507
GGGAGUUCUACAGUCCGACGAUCAGAAUUGGAGAGCAGGCACAUCAACUGAUCUCAUUUCUAGAGAGCCCCUGACAAUCCUGAGGCUUCAUCAGGAGCUAGAGCCAUUUAACAUUUCCUCUUUCCAAGACCAAUGGAAUUCUCGGGUGCCAA | 0.316
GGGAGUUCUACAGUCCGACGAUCUAAAAUUUUAAUCCUUACUGCAUUUCUUCUGUUCCUACAAAUGUAUUAAACAUUCAGUUUAACUGGUGUUCAUUUUCUUUUAAAGUCUAUUGAAAUAUUCAAAAGGGAAAUGGAAUUCUCGGGUGCCAA | 0.613
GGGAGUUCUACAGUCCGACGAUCAAAAUGACAAGCAUUGCAUCCCAGUCUUGUGUUCCGAAGUCAGUCGGAGUACUUGAAGAAGGCCCACGGGCGGCACGGAGUUCCUGAGCCCUUUCUGUAGUGGGGGAAAGUGGAAUUCUCGGGUGCCAA | 2.1
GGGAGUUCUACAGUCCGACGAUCCUAGGGAAAAACAUAUCUGUUCCAAGAAAAUAAACUAGUUCUCAGAGCCUUGAUUUUCCUGGUCAGGGUGAAGUUCCCUGUGUGUCUGUAAAAUAUGAACAAGGAUUCAUUGGAAUUCUCGGGUGCCAA | 0.349

Single results of other studies
Molecule | tested on | test | system | conditions | quantity | value
UBE2O (Homo sapiens, UniProt Q9C0C9) | PSAT1 (Homo sapiens, UniProt Q9Y617) | cross-linking MS | cell fractions | added: DSSO | cross-linked residues | K801 to K363
FMDPGIFPR | HLA class I histocompatibility antigen, A alpha chain, allele A*25:01 (Homo sapiens, UniProt P04439) | peptide-MHC binding | peptide | concentration not given | binding | inactive
NOP14 (Homo sapiens, UniProt P78316) | RCL1 (Homo sapiens, UniProt Q9Y2P8) | cross-linking MS | cell fractions | added: DSSO | cross-linked residues | K72 to K57
SF3A3 (Homo sapiens, UniProt Q12874) | SF3B3 (Homo sapiens, UniProt Q15393) | cross-linking MS | cell fractions | added: DSSO | cross-linked residues | K496 to K974
FBL (Homo sapiens, UniProt P22087) | HAUS7 (Homo sapiens, UniProt Q99871) | cross-linking MS | cell fractions | added: DSSO | cross-linked residues | K131 to S62

For quick reference, copied from above (series 2):
Sequence | RBNS enrichment (R)
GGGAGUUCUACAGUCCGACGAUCCACAGACUGCCUUAGCCCCCACACCUCUGUCCCUAGGAGAAUGAAUGGGCAGAGUGGAGCUGACACUCUCUCCUCAGGCAGCCUCCUCAGCCUUUAUUCGUCAACGGCCUUGGAAUUCUCGGGUGCCAA | 0.507
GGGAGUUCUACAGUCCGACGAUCGAUUGAACUCUGAAUUAACACAGUAUUCAUUCAUCUGUGUUAUUUUGUAAAAAUAACUGUAGCUUAUAUUCUUUAUUUGUGCAUACCAAUGUGAAAAUCCACUCUUUUAUUGGAAUUCUCGGGUGCCAA | 1.12
